# Measured values gathered from unrelated publications.
# Each numbered part is a random draw from the data of one study; scales do not carry over between parts. Positions count from the first letter of the parent shown.

# Series 1 — target: CRIPT, C-terminal peptide; method: DHFR complementation, deep sequencing; medium: yeast; reference: wild type; reading: higher = weaker binding
# Setting: single substitutions, model-inferred values
# Parent: ERBIN, PDZ domain 1 (human); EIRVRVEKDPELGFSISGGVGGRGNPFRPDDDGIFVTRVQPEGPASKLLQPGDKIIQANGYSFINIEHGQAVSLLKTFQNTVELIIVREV; partner TKNYKQTSV
Substitution,binding free energy change
S15Q,1.05 kcal/mol
G13I,1.19 kcal/mol
Q40V,0.196 kcal/mol
G52F,0.88 kcal/mol
F78A,-0.0568 kcal/mol
K47V,0.189 kcal/mol
G21K,0.227 kcal/mol
F27Q,1.03 kcal/mol
L12G,0.451 kcal/mol
I55P,0.702 kcal/mol
L75V,0.831 kcal/mol
E83R,0.242 kcal/mol
D53W,0.39 kcal/mol
P44A,0.239 kcal/mol
I85W,-0.000714 kcal/mol
H68S,1.33 kcal/mol

# Series 2 — target: CCNB2, cyclin fold, Cln2 fusion (human); method: yeast growth competition, sequencing; medium: yeast; setting: weak parent motif; reference: not given; reading: higher = stronger binding
# Parent: ORC1 docking peptide (human); PRARKRLELGNLG
Substitution,normalised enrichment score
PRARKWLELGNLG [R6W],-0.00938
PRARKQLELGNLG [R6Q],0.0504
PRARLRLELGNLG [K5L],0.2
PRAIKRLELGNLG [R4I],0.195
PAARKRLELGNLG [R2A],0.672
PRARKRLELGNLK [G13K],0.369
PRARKRLCLGNLG [E8C],0.358
PRARKRLELGNLI [G13I],0.000569
PRARKRLELNNLG [G10N],0.0362
PRARKRFELGNLG [L7F],0.0852
PRARKRLEFGNLG [L9F],0.448
PRARKRLALGNLG [E8A],0.805
PRARKRIELGNLG [L7I],0.446
PRARKRLENGNLG [L9N],0.349
PRTRKRLELGNLG [A3T],0.641
PRARKGLELGNLG [R6G],0.962
PRARKRLELDNLG [G10D],0.559
PRARKRLEDGNLG [L9D],0.206
PRARKRLELVNLG [G10V],0.566
PRARKRLEAGNLG [L9A],1.08
PRARYRLELGNLG [K5Y],0.114
PRKRKRLELGNLG [A3K],0.333
PRMRKRLELGNLG [A3M],1.51
PRARKRLELGNSG [L12S],0.298
PRACKRLELGNLG [R4C],-0.0973

# Series 3 — method: EMSA with sequencing; form: double-stranded DNA, one strand shown; medium: in vitro; tested at: 10 and 20 nM; reference: negative control set to 0; reading: higher = stronger binding
# Target: Hepatocyte nuclear factor 3-alpha (Foxa1, Mus musculus, UniProt P35582, residues 1-468, full length assumed)
# Setting: whole designed probe, mean of two concentrations, ends assumed
# All sequences stand within: GTGAGCGGTGCCCATTGATGGGGAAC … TTTCACTGGGATCGTGGGGAC
# Target sequence (chain): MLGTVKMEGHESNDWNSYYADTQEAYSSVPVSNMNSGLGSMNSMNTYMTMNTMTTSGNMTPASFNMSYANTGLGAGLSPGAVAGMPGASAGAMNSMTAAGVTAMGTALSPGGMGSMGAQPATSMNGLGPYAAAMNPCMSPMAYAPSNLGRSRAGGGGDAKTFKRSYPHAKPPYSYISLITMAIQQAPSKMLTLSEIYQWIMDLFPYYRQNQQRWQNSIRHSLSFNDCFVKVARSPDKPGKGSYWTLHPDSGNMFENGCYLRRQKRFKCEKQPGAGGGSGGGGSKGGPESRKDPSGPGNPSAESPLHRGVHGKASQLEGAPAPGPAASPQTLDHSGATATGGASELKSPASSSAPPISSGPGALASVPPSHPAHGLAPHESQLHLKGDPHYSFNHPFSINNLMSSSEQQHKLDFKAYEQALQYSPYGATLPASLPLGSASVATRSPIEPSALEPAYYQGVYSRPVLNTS
Oligonucleotide,normalised bound fraction
GAGCAGGTGATAGCTCTTAAACAACCAGCCAGTCCCAGGTTTTCAGCCCAGTGTTTGTTCACTTATCCCAGACGCTTGACTCACGAGGGACCGTGTTTATACTGGCTCTGTCCCAGGGTCACTTTGGTTGAGTGGTATCCATTGGTGTGGCTCCTACAGCAAAAGACCAAGTCCTGATGCCAAGAGAGATTAG,0.14 ratio
ATCTTCCCCCTCTTCCTTGCCCCACCAGCTCACCTACGGGGGTTATTTGCAGATAGGAAAATAAATAAAGCCGGCATTCGTTAACGCAGTTCTGGCGCAAACTGCTGTTTGCTCTGGATCTAACATGGTCCTTTGGCGAGGCGTGGCTCCGGGAGAGCAAAGCACCGTGTCAGGGCCATGATCCGGGCTCGCC,0.342 ratio
TGGGCTTCGTATAATTACAATTCGTAAAATCAGTTGGCCTAATACTGTCTGAATAAACTTTTATTTAAAAAAAGAAAAAACGAAAATGTTATATGTAATCTGGGACTCTGGGAAGATATGAAGAGTTGGTAGTCTCCACTCTCATAGAAAACAAAGCCCGAAGAGGCAGGGGTGGGAGGAGTCCTAAAGAAGA,0.0137 ratio
CAGTCACAGATTTGCATACAATACAATTATGTATTGGCTATTTACAATTTACAGTAGTGGTTCTTCCTCTGAGAAATATAAGTACAAAAGCTAAGTAAACAATGAGGTACTGCCATTTGGGATTTATTATGTGTCATAGCTTAAAGAACTGGCCTTTAGCAAATATTAAACAAATCAACCTGAATAAAATAGT,0.532 ratio
TGGCCCAGGGGTTGGGGACCCCTAATATATAATGATTCACATTATATATCAAAAGTAAATCAAAAAATTATAACTACAGCTAATTAAAAACTATGTAATCTTACAGATGAAAATAAGATATTATGCAGCACTATAATTAGCTGCTGTTAAGTGATGATGTTGTAGAGAGGTTTTAATACAAATAAAACTTGGA,0.239 ratio
ATCTTCCCCCTCTTCCTTGCCCCACCAGCTCACCTTCCCGGGTTATTTGCAGATAGGAAAATAAATAAAGCCGGCATTCGTTAACCCTCTTCTGGCGCAAACTGCTGTTTGCTCTGGTCCTTTGGCGACGCCAGGCGATGAATCATGTCCGGGAGAGCAAAGCACCGTGTCAGGGCCATGATCCGGGGTGGCC,0.372 ratio
GTGAGAAAGAAAATATAAAAGAGCTGAGTCAAATCTGGAGTCAATAAAGGTTTGTAGTTCTTCAAACAAGAACCCTTGCTCTGAATTCTAAAAGTAAATAACAGACATGCTGAAAAAATATTTCATTTTATGAAAGGTTCTGCACCAAAGCCTTTTACAAAAACAGTCTACAAAACCTACTAAACATCCTGTT,0.31 ratio
TTACCGAAGATAGGAATTTCTTGCTTTTATTAAAACTGACCCAAATGTAATCCAATCAGGATTGCAAGATGTTATATTTGACCTATAAATATAAGTAAACATGGCTCTCTTTATCTGGGAGCCATTTGTTGTGAAGGCAGAATTCCTTCATATATGTTTTACTGTTGCAGATAAAACTCAGTATTAAAAAAAT,0.261 ratio

# Series 4 — method: RNA Bind-n-Seq; form: RNA; medium: in vitro; tested at: 365 nM; reference: no-protein control; reading: higher = stronger binding
# Target: RNA binding protein fox-1 homolog 2, RRM domain, GST-SBP tag (RBFOX2, Homo sapiens, UniProt O43251-10, residues 100-194)
# Setting: natural RNA segment, single round, ends assumed
# All sequences stand within: GGGAGUUCUACAGUCCGACGAUC … UGGAAUUCUCGGGUGCCAA
# Construct (chain): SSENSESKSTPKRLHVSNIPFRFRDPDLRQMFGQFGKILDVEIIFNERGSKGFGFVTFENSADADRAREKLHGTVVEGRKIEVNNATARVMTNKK
Oligonucleotide,RBNS enrichment (R)
AAUAUAAUAUAUAUAAAUAUGCUACAUAUAUAUUUAUAAAAUUUCUAGUGGGAGUUCUAUAUAAAUGUUUCUUUGGUAUUCUUCAGCCUGUGAUUUAAAGUUUUACAAAA,2.24
ACUCAGGCCAGGGCCCUCCUGACGACGGUUUCCUGACUAGAAGAAAGGGACGUGGGUUUGAAGGCAGCAGCAGUGCUUACUUAACCUGCAUUUCAGCAUUUGGCAAGUUC,0.32
AUCCUCAAGGCCCUGCCCCAGUGAGACCCUGGGGCCCCUUGGCGGGCAGCCCAGCCUCUGUCCCUCUUUGCCUGUGUGAGCAUCUCUGUGUACCCACUCCUCACUGCCCC,0.668
UAAUAUGAAGUAGAGAUUACUUUACACUACAUUGUACAUGGAGUAAUUCAACUGAAUAAAAGUGUCACGGGUAAAGCUUUUUAACGGUUAAUUUCUGUCAAACAGUAGGU,0.3
UACAGGCGUGAGCCACCACGCCCAGCCAGGGUUUUCUUUUUUAAUCCUUUCCAGAAACAGAAAGAGCUCUUAACCUCUCUGAGCUCUUUCUGCAAUUCCUUUGGGCGAUU,0.389
AAACCGGGCCGCCAGGAUCCCUCCCCGCGGCGGCGAUGGCCCGAGCCAUGAGAGUGAGGACUUUCCGCGCCCAUUGGUGACCCUUCCAGGCAGACAGCCUCAGCAACGCC,0.19
GUGUUGAAUUUCCUUUUUAUGCAUCAAACGAAGGCCAUAUUGUCCAUAAAUGCUCAGUGCUCAGGAUCUCAUUAAUAUGCCGAACCUAACUACAGAUGACUUUUUAAUAU,0.53
CUGCCUGGGUCUCUGAGGAAGGAGGGGUCCUGCUUUCUCACCCAGCUCACCCCUUUGGUGACUCAGAGUCCUUCUCAGAAGGAAACCCUGACUCCUGGGCCAUUUCCUAA,0.149
GCAGUUCCUGCAGAGACAGUGCUGGCUGAGUCUCCGCCUUGCUGGGGCUUGUCCUAGAGGCUCCAGCUCUGGCACAGUGGUUCCUGGCUGCUGCCAUGUCUCAGAUGAGG,0.354
GGCCCUUCACGGUCCUGGAGGGAGGUGAGGCUGGCCUUGGAAGGCGUGCCCUGGAGAGGUCUUGGGUGAAAACUUGACCUUGAAGAAACCAAUCACAAAAGCGGCGUUGG,0.356
GGAGGAUCCUGACUCUCCUCUUUCCCAAACCAAGAGUUCAAGACUUUGGCGCCUUUUCUGAACCACUUCUGGGGCCCAACCCCUCCCUAGAACGGGCCCUCCCCCAACCC,0.474
GAGUUUUAUUUUGCAUUAGGGUGUGUUUUAUGUUAAGCAAAACAUACUUUAGAAACAAAUGAAAAAGGCAAUUGAAAAUCCCAGCUAUUUCACCUAGAUGGAAUAGCCAC,0.369

# Series 5 — method: DHFR PCA, dose-response; medium: yeast; setting: Hill fit, mean, not affinity; together with: (+)-ABA, dose series; reading: lower = more sensitive
# Target: ABI1, truncated, D143A, DHFR fusion (Arabidopsis thaliana, UniProt P49597)
# Parent: PYL1, truncated, DHFR fusion (Arabidopsis thaliana, UniProt Q8VZS8); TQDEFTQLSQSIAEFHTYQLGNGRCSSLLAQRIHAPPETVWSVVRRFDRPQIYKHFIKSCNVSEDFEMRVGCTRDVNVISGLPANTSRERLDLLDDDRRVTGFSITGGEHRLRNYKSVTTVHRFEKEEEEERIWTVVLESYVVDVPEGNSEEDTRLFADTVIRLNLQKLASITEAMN
Substitution,ABA EC50 [µM]
L28W,25.1
K58L,21.8
T17S,5.19
E131V,4.19
D65S,3.07
R90T,6.34
T73V,1.45
V44T,77.9
K58S,3.13
I33L,189
R99N,14.9
V142F,41.5
L28Y,44.3
R24C,7.55
Y53A,130
I52C,4.63
Q7D,2.16
P37H,71.4
R113C,5.4
T106G,242

# Single results of other studies
Substance,target,assay,system,conditions,how to read,quantity,value
"PhoQ, residues 284 288 289 292 302 303 TYGVAM","PhoP, residues 12 14 15 18 19 NMSFL (Escherichia coli, UniProt P23836)","Sort-seq, item: YFP reporter",E. coli,"PhoQ-PhoP variant library, together with: 10 µM Mg2+","reference: high Mg2+ state, higher = stronger signaling",fold induction,4.15

# For quick reference, copied from above (series 5):
Substitution,ABA EC50 [µM]
T17S,5.19
E131V,4.19
D65S,3.07
R90T,6.34
T73V,1.45
V44T,77.9
K58S,3.13
I33L,189
R99N,14.9
V142F,41.5
L28Y,44.3
R24C,7.55
Y53A,130
I52C,4.63
